# Experimental data collected from several papers.
# Compare with care: the assays were run in different laboratories. Several values in a cell are separate wells, animals, samples, runs or records. ± marks the error that the study gave.
Structure (SMILES),target or system,assay,system,setting,scale,endpoint,value
CN(C(=O)c1ccn2ncc(-c3ccc(C(N)=O)cc3)c2c1)c1ccc(C#N)cn1,Cryptosporidium parvum,,"UGA1 Nluc, IFN-gamma knockout C57BL/6 mice, faeces","oral, 10 mg/kg daily, 432 h post infection, treatment days 11-17",higher means more parasites,faecal Nluc luminescence,280 a.u. and 57 a.u. and 2210 a.u. and 3280 a.u. and 3020 a.u.
Cc1cc(C(=O)Nc2nc3cccc(C)c3n2[C@H]2CCCCN(C(=O)/C=C/CN(C)C)C2)ccn1,Trypanosoma brucei,,"STIB795, mouse acute HAT model","oral, 50 mg/kg once daily for 4 days, day 31",baseline: mice,survival,100%
CCCSC(SCCC)c1ccc(OCCNS(=O)(=O)c2ccc(Cl)cc2)c(OC)c1,Tobacco mosaic virus,inactivation activity,plant in vivo,,,EC50,164.5 ± 1.4 µg/mL
O=[N+]([O-])c1ccc(C2=[N+]([O-])c3ccccc3N3CCCN=C23)cc1,Parabacteroides distasonis and Bacteroides spp.,bacterial growth,,,,MIC50,≤ 0.06 µg/mL
CC(O)CN.O=C(O)C(Cl)Cl,Eleusine indica,,,"15 mg/mL, 21 days, post-emergence, greenhouse",,herbicidal inhibition,44%
CC[C@H](C)[C@H](NC(=O)[C@H](C)NC(=O)CNC(=O)[C@H](C)NC(=O)[C@H](CCCCN)NC(=O)[C@H](CO)NC(=O)[C@H](C)NC(=O)[C@H](CCSC)NC(=O)CN)C(=O)N[C@@H](C)C(=O)NCC(=O)N[C@@H](CCCCN)C(=O)N[C@H](C(=O)N[C@@H](C)C(=O)N[C@@H](CCCCN)C(=O)N[C@H](C(=O)N[C@@H](C)C(=O)N[C@@H](CC(C)C)C(=O)N[C@@H](CCCCN)C(=O)N[C@@H](C)C(=O)N[C@@H](CC(C)C)C(N)=O)C(C)C)[C@@H](C)CC,Escherichia coli,,CFT073 wild type,with: ampicillin,,combination index,1.1
C[N+]1=C2C(c3ccc([N+](=O)[O-])cc3)=[N+]([O-])c3ccccc3N2CCC1,Prevotella spp.,bacterial growth,,,,MIC50,0.5 µg/mL
Cc1cc(N2CCC(C#N)(C3(C)CC3)C2=O)cc(C(=O)NCc2cc(F)cc(-c3cnn(C)c3)c2)n1 (racemic),Plasmodium falciparum,parasite growth,compound-resistant Dd2-B2 bulk 1_Bulk_10e7_D4,,,IC50,62 nM
CCCSC(SCCC)c1ccc(OCCNS(=O)(=O)c2cccc(Br)c2)c(Cl)c1,Tobacco mosaic virus,protective activity,plant in vivo,,,EC50,307.7 ± 2.7 µg/mL
CC[C@H](C)CCCCC(=O)N[C@@H](CCN)C(=O)N[C@H](C(=O)N[C@@H](CCN)C(=O)N[C@H]1CCNC(=O)[C@H]([C@@H](C)O)NC(=O)[C@H](CCN)NC(=O)[C@H](CCN)NC(=O)[C@H](CC(C)C)NC(=O)[C@@H](CC(C)C)NC(=O)[C@H](CCN)NC1=O)[C@@H](C)O,Escherichia coli,daily serial passaging,ATCC 8739,"highest sub-MIC, 45 days",baseline: initial MIC,MIC fold change,5.26
C[C@H](NC(=O)[C@@H](O)c1cc(F)cc(F)c1)C(=O)N[C@@H]1C(=O)N(C)c2ccccc2-c2ccccc21,dengue virus type 2,"viral protein expression, immunoblot, measured: NS4B and NS1",Huh-7.5.1,48 h,,lowest effective concentration,3 nM
CC(O)CN(CC(C)O)CC(C)O.O=C(O)C(Cl)Cl (stereo not drawn),Eleusine indica,,,"15 mg/mL, 21 days, pre-emergence, greenhouse",,herbicidal inhibition,0%
C[N+]1=C2C(c3ccccc3)=[N+]([O-])c3ccccc3N2CCC1,Parabacteroides distasonis and Bacteroides spp.,bacterial growth,,,,MIC90,4 µg/mL
CCOC(=O)C1(Cc2ccc(C)cc2)Oc2cc(F)ccc2N(Cc2ccc(C)cc2)C1=O (stereo not drawn),Echinochloa crus-galli,"fresh weight, greenhouse postemergence",,"postemergence, 150 g ai/ha, 21 days",,inhibition,35.7 ± 1.96%
COc1ccc(C2=[N+]([O-])c3ccccc3N3CC(C)(C)CN=C23)cc1,Parabacteroides distasonis and Bacteroides spp.,bacterial growth,,,,MIC50,0.25 µg/mL
CCc1nn(C)c2nc(-c3ccc(C(=O)O)cc3)nc(NCc3ccccc3)c12,Cryptosporidium parvum,,HCT-8,"EC90, 6 h",baseline: DMSO control,parasite number,62.9% and 104% and 67.5% and 87.4%
O=C1NC2(CC2)COc2ncc(F)cc2[C@H]2COCCN2c2ccn3ncc1c3n2,,,"Sprague-Dawley rat, male, testes","oral, 20 mg/kg/day, 4 weeks dosing, end of recovery",,organ-to-brain weight ratio,163 ± 18.8%
C[C@H]1O[C@@H](O[C@H]2CC[C@@]3(C)[C@H](C2)C[C@@H]2O[C@]24[C@@H]3C[C@@H](O)[C@]2(C)[C@@H](C3=CC(=O)OC3)CC[C@@]24O)[C@H](O)[C@H](O)[C@@H]1O[C@@H]1O[C@H](CO)[C@@H](O)[C@H](O)[C@H]1O,Oncopeltus fasciatus,,,"diet, concentration not given",,eggs per female,294
CCOC(=O)C1(Cc2ccc(C#N)cc2F)Oc2cc(F)ccc2N(Cc2ccc(C#N)cc2F)C1=O (stereo not drawn),Eclipta prostrata,"fresh weight, greenhouse postemergence",,"postemergence, 150 g ai/ha, 21 days",,inhibition,56.4 ± 1.9%
[O-][N+]1=C(c2ccccc2)C2=NCCCN2c2ncccc21,Prevotella spp.,bacterial growth,,,,MIC90,0.125 µg/mL
Cc1ccc(N2CC3CC(C2)N3C)cc1C(=O)NC1(c2ccc3c4c(cccc24)C(=O)N3C)CC1,Human coronavirus NL63,viral replication,,10 µM,,inhibition,97.1%
COc1cc(C(SC(C)C)SC(C)C)ccc1OCCNS(=O)(=O)c1ccccc1C(F)(F)F,tobacco mosaic virus,curative activity,in vivo plant,,,EC50,> 2500 µg/mL
COc1ccccc1-c1n[nH]c2nc(NC3CCN(C(=O)Cc4ccc(F)cc4F)CC3)ncc12,,"bead binding, competition bead pull-down, measured: LINJ.35.1230",Leishmania donovani axenic amastigote extract,10 µM,baseline: vehicle,relative abundance,0.88
CCSC(SCC)c1ccc(OCCNS(=O)(=O)c2ccc(C)cc2)cc1,Tobacco mosaic virus,protective activity,plant in vivo,,,EC50,155.1 ± 1.3 µg/mL
C[N+]1=C2C(c3ccc(Cl)cc3)=[N+]([O-])c3ccccc3N2CCC1,Parabacteroides distasonis and Bacteroides spp.,bacterial growth,,,,MIC50,4 µg/mL
COC(=O)C1=CO[C@@H](C)[C@@H]2Cn3ccc4c5ccccc5nc-4c3C[C@H]12,Plasmodium falciparum,"growth, [3H]-hypoxanthine uptake",Dd2,48 h,,IC50,4850 ± 2020 nM
CC[C@H](C)[C@H](NC(=O)[C@H](CCCNC(=N)N)NC(=O)[C@H](CO)NC(=O)[C@H](Cc1ccc(O)cc1)NC(=O)[C@@H](NC(=O)[C@@H](NC(=O)[C@H](C)NC(=O)CNC(=O)[C@H](CCCCN)NC(=O)[C@H](CCCCN)NC(=O)CCNC(=O)CCCCCNC(=O)[C@H](CCCNC(=N)N)NC(=O)CCCCCNC(=O)[C@H](CCCNC(=N)N)NC(=O)[C@H](CCCNC(=N)N)NC(=O)CCCCCNC(=O)[C@H](CCCNC(=N)N)NC(=O)[C@H](CCCNC(=N)N)NC(=O)CCCCCNC(=O)[C@H](CCCNC(=N)N)NC(=O)[C@H](CCCNC(=N)N)NC(=O)CCCCCNC(=O)[C@@H](N)CCCNC(=N)N)C(C)C)[C@@H](C)O)C(=O)N[C@@H](CO)C(=O)NCC(=O)N[C@@H](CCC(N)=O)C(=O)N[C@@H](Cc1ccc(O)cc1)C(=O)N[C@@H](CCCCN)C(=O)O,Escherichia coli,,"ATCC 25922, Mueller-Hinton broth",with: NaCl 150 mM,,MIC,48 µM
CCOC(=O)C1(Cc2ccccc2F)Oc2cc(F)ccc2N(Cc2ccccc2F)C1=O (stereo not drawn),Echinochloa crus-galli,"fresh weight, greenhouse postemergence",,"postemergence, 150 g ai/ha, 21 days",,inhibition,47.1 ± 1.7%
COc1cc(C(SC(C)C)SC(C)C)ccc1OCCNS(=O)(=O)c1ccc(C)cc1,Tobacco mosaic virus,inactivation activity,plant in vivo,,,EC50,210.5 ± 1.4 µg/mL
CCOC(=O)C1(Cc2ccc([N+](=O)[O-])cc2)Oc2cc(F)ccc2N(Cc2ccc([N+](=O)[O-])cc2)C1=O (stereo not drawn),Eclipta prostrata,"fresh weight, greenhouse postemergence",,"postemergence, 150 g ai/ha, 21 days",,inhibition,64 ± 2.26%
CCCSC(SCCC)c1ccc(OCCNS(=O)(=O)c2ccc(Br)cc2)c(OC)c1,Tobacco mosaic virus,inactivation activity,plant in vivo,,,EC50,43.2 ± 2.3 µg/mL
CCOC(=O)C1(Cc2cccc(C)c2)Oc2cc(F)ccc2N(Cc2cccc(C)c2)C1=O (stereo not drawn),Echinochloa crus-galli,"fresh weight, greenhouse postemergence",,"postemergence, 150 g ai/ha, 21 days",,inhibition,54.9 ± 2.02%
[O-][N+]1=C(c2ccc(Cl)cc2)C2=NCCCCN2c2ccccc21,Parabacteroides distasonis and Bacteroides spp.,bacterial growth,,,,MIC50,1 µg/mL
CC(C)C[C@H](NC(=O)[C@H](Cc1ccccc1)NC(=O)[C@H](CCC(N)=O)NC(=O)[C@H](Cc1ccc(O)cc1)NC(=O)[C@H](CCCCN)NC(=O)[C@@H]1CCCN1C(=O)[C@H](CCCNC(=N)N)NC(=O)[C@H](CCC(N)=O)NC(=O)[C@H](Cc1c[nH]c2ccccc12)NC(=O)[C@H](CS)NC(=O)[C@H](Cc1c[nH]c2ccccc12)NC(=O)[C@H](Cc1ccccc1)NC(=O)[C@H](CCCNC(=N)N)NC(=O)[C@H](CCCCN)NC(=O)[C@H](CCCCN)NC(=O)[C@H](CCCCN)NC(=O)[C@@H](NC(=O)[C@@H](NC(=O)[C@H](CC(C)C)NC(=O)[C@@H](N)CO)C(C)C)[C@@H](C)O)C(=O)O,Staphylococcus haemolyticus,,,,,MBC/MIC ratio,0.64
CC(C)(C)C(=O)OCOP(=O)(OCOC(=O)C(C)(C)C)C1CCCN(O)C1=O (stereo not drawn),A549,,,,,TGI,> 100000 nM
FC(F)(F)c1cccc(CNc2nc(NC3CCN(Cc4ccccc4)CC3)c3nc[nH]c3n2)c1,Cryptococcus neoformans,"RNA-seq, measured: CNAG_02001",,"48 µg/mL, 3 h",baseline: untreated,mRNA fold change,2.62
Cc1cc(Cl)cc(S(C)=NC#N)c1NC(=O)c1cc(Br)nn1-c1ncccc1Cl (stereo not drawn),Spodoptera litura,leaf-dip,third instar larvae,"6.25 ppm, 72 h",,mortality,100%
CCCSC(SCCC)c1ccc(OCCNS(=O)(=O)c2ccc(F)c(Cl)c2)c(OC)c1,Tobacco mosaic virus,inactivation activity,plant in vivo,,,EC50,383.2 ± 3.1 µg/mL
CCOC(=O)C1(C)Oc2cc(F)ccc2N(C)C1=O (stereo not drawn),Eclipta prostrata,"fresh weight, greenhouse postemergence",,"postemergence, 150 g ai/ha, 21 days",,inhibition,59.1 ± 2.47%
C[C@H](NC(=O)Cc1cc(F)cc(F)c1)C(=O)N[C@@H]1C(=O)N(C)c2ccccc2-c2ccccc21,dengue virus type 2,"viral replication, Renilla luciferase reporter virus",MEF,48 h,,EC50,21 nM
CCCSC(SCCC)c1ccc(OCCNS(=O)(=O)c2ccc(C)cc2)cc1,Tobacco mosaic virus,inactivation activity,plant in vivo,,,EC50,612.6 ± 0.7 µg/mL
CCOC(=O)C1(Cc2ccc(C(F)(F)F)cc2)Oc2cc(F)ccc2N(Cc2ccc(C(F)(F)F)cc2)C1=O (stereo not drawn),Echinochloa crus-galli,"fresh weight, greenhouse postemergence",,"postemergence, 150 g ai/ha, 21 days",,inhibition,48.8 ± 0.58%

# Excerpt of the above:
Structure (SMILES),target or system,assay,system,setting,scale,endpoint,value
Cc1ccc(N2CC3CC(C2)N3C)cc1C(=O)NC1(c2ccc3c4c(cccc24)C(=O)N3C)CC1,Human coronavirus NL63,viral replication,,10 µM,,inhibition,97.1%
CCCSC(SCCC)c1ccc(OCCNS(=O)(=O)c2ccc(F)c(Cl)c2)c(OC)c1,Tobacco mosaic virus,inactivation activity,plant in vivo,,,EC50,383.2 ± 3.1 µg/mL
CCCSC(SCCC)c1ccc(OCCNS(=O)(=O)c2ccc(Br)cc2)c(OC)c1,Tobacco mosaic virus,inactivation activity,plant in vivo,,,EC50,43.2 ± 2.3 µg/mL
CC(O)CN(CC(C)O)CC(C)O.O=C(O)C(Cl)Cl (stereo not drawn),Eleusine indica,,,"15 mg/mL, 21 days, pre-emergence, greenhouse",,herbicidal inhibition,0%
